{"data": "Experimental data collected from several papers", "note": "Numbered parts are unrelated; each lists some results of a single study. Values joined by “and” are separate records of one study, mostly repeats; a detail may differ.", "sequence of UniProt Q13976 (whole entry, looked up)": "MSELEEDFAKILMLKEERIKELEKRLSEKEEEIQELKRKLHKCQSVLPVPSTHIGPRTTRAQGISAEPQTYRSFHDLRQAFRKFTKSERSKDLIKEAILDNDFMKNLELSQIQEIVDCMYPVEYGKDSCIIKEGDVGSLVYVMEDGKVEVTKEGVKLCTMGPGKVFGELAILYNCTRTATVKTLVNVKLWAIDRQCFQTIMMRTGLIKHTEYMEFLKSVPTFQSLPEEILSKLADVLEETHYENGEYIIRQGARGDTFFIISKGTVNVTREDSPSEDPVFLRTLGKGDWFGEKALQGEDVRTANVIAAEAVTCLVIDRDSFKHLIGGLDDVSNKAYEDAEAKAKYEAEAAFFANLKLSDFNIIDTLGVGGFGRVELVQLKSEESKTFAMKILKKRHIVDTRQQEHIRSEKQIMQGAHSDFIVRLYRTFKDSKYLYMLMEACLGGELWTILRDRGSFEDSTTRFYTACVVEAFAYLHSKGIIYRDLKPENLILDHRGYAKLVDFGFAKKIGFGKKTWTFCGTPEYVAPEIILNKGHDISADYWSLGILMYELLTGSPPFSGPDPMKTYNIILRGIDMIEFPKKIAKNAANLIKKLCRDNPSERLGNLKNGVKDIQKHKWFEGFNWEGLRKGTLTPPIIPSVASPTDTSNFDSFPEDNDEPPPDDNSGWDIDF", "sequence of UniProt P78362 (whole entry, looked up)": "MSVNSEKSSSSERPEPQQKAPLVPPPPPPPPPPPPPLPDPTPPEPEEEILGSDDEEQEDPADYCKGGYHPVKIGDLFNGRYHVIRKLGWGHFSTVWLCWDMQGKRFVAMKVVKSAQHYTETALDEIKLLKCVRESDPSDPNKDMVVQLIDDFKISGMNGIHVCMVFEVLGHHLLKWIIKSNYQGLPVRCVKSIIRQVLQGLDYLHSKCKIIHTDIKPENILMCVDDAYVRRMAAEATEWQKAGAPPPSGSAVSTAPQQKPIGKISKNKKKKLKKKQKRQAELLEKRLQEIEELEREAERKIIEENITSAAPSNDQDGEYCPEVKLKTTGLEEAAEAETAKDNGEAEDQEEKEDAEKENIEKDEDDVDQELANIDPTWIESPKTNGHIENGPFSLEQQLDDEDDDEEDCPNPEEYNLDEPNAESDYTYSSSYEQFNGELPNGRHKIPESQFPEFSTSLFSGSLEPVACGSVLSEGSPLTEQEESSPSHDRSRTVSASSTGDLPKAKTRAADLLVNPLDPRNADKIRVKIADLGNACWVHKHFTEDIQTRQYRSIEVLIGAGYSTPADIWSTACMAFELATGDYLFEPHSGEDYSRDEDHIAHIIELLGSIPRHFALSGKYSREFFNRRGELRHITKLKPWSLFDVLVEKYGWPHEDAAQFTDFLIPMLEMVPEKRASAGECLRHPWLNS", "sequence of UniProt P49761 (whole entry, looked up)": "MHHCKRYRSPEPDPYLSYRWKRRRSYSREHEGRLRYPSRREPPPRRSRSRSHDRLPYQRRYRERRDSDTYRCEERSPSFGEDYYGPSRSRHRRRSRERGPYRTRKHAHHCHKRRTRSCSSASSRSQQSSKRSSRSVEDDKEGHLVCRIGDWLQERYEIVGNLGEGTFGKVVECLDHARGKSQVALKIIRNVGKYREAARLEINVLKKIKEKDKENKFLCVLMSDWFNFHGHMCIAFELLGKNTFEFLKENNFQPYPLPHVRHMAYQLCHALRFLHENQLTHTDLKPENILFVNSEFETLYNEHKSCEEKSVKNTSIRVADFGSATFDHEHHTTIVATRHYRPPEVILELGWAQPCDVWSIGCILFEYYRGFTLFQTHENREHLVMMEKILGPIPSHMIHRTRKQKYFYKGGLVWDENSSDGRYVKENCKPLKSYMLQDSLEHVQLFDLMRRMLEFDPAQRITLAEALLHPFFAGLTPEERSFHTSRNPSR", "sequence of UniProt Q9Y6M4 (whole entry, looked up)": "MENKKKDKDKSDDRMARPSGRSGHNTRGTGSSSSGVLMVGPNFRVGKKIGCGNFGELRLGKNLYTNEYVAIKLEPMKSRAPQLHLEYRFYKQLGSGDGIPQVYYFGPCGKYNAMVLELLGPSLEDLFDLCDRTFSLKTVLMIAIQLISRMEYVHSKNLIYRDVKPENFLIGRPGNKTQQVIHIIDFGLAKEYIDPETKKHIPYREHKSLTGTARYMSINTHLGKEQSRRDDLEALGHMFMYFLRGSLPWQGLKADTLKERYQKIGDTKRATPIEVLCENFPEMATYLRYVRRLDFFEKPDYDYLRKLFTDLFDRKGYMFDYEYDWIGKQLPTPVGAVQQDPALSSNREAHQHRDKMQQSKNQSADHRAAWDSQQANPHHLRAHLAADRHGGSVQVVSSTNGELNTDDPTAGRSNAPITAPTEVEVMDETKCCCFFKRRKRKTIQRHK", "sequence of UniProt P53355 (whole entry, looked up)": "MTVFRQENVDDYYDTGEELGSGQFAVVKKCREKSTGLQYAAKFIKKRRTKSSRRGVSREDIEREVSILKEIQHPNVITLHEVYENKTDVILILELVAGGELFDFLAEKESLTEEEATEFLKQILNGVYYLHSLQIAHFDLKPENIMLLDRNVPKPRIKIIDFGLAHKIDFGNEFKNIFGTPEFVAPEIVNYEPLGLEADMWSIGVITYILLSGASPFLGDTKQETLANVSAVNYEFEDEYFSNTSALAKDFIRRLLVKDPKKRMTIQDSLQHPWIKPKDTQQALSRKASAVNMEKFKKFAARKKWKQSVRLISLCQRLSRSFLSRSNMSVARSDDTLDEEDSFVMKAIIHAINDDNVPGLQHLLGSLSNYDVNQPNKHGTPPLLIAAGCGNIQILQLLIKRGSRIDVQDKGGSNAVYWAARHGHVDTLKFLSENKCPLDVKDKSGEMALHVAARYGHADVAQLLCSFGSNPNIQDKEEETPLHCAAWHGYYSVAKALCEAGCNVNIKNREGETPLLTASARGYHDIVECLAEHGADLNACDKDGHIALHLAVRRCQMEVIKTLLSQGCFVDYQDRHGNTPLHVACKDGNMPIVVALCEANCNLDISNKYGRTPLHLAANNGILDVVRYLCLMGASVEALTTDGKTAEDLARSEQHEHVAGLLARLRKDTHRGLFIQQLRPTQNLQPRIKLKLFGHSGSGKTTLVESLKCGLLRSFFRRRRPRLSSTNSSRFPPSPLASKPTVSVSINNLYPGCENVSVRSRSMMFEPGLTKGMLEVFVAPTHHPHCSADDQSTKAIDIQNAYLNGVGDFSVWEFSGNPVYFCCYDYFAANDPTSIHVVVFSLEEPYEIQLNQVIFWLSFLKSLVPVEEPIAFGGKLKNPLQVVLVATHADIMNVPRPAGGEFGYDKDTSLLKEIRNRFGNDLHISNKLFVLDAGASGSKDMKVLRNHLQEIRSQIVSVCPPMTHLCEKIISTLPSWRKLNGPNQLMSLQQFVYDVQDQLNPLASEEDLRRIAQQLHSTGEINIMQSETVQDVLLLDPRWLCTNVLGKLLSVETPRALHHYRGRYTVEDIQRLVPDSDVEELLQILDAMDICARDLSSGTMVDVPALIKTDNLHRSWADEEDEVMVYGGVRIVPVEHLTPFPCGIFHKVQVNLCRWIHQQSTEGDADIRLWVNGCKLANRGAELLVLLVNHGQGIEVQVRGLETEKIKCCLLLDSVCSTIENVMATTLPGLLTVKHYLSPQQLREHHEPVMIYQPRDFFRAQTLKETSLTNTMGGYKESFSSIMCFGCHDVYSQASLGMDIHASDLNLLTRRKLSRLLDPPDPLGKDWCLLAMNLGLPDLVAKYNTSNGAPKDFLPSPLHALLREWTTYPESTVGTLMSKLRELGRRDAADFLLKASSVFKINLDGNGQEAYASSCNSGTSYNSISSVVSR", "sequence of UniProt Q00534 (whole entry, looked up)": "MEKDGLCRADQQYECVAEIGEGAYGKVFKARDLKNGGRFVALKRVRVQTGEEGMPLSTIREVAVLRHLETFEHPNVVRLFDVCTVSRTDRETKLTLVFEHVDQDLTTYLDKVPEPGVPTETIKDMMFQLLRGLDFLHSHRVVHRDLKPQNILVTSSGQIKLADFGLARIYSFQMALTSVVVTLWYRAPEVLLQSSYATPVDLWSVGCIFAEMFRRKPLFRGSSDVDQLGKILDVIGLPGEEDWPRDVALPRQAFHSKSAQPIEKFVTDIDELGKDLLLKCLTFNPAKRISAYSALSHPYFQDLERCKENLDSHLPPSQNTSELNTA"}
{"data": "Sample 1", "SMILES": "COc1cc(C(=O)OCCCN2CCCN(CCCOC(=O)c3cc(OC)c(OC)c(OCc4ccc([N+](=O)[O-])cc4)c3)CC2)cc(OC)c1OC"}
{"assay": "von Frey, 0.4 g filament", "test system": "mouse, CFA inflammatory pain", "conditions": "subcutaneous, 10 mg/kg, 3 h post-dose, second injection, day 3", "paw withdrawal frequency": "30% and 50% and 40%"}
{"assay": "von Frey test", "test system": "mouse, STZ diabetic neuropathy", "conditions": "subcutaneous, 30 mg/kg, second of three doses, 0 h", "paw withdrawal frequency": "0.29 fraction of stimuli and 0.08 fraction of stimuli and 0.13 fraction of stimuli and 0.03 fraction of stimuli and 0.12 fraction of stimuli and 0.23 fraction of stimuli"}
{"assay": "von Frey, 0.4 g filament", "test system": "mouse, CFA inflammatory pain", "conditions": "intravenous, dose not given, 1 h post-dose, first injection, day 1", "paw withdrawal frequency": "30% and 40% and 50%"}
{"assay": "von Frey, 0.4 g filament", "test system": "mouse, CFA inflammatory pain", "conditions": "intravenous, dose not given, 24 h post-dose, second injection, day 3", "paw withdrawal frequency": "60% and 70% and 50%"}
{"assay": "von Frey test", "test system": "mouse, spared nerve injury", "conditions": "intrathecal, 100 nmol, third of 3 doses, 1 h", "paw withdrawal frequency": "0% and 30% and 20%"}
{"assay": "von Frey test", "test system": "mouse, STZ diabetic neuropathy", "conditions": "subcutaneous, 30 mg/kg, second of three doses, 5 h", "paw withdrawal frequency": "0.1 fraction of stimuli and 0.4 fraction of stimuli and 0.23 fraction of stimuli and 0.19 fraction of stimuli and 0.08 fraction of stimuli and 0.36 fraction of stimuli and 0.11 fraction of stimuli"}
{"assay": "von Frey test", "test system": "mouse, CFA inflammatory pain", "conditions": "intrathecal, dose not given, 24 h, with: DPCPX 10 nmol intrathecal", "paw withdrawal frequency": "70% and 80% and 60%"}
{"assay": "von Frey test", "test system": "mouse, CFA inflammatory pain", "conditions": "intrathecal, dose not given, 1 h, with: DPCPX 10 nmol intrathecal", "paw withdrawal frequency": "30% and 40% and 20%"}
{"data": "Sample 2", "SMILES": "Cn1cc(-c2cccc(CN3CCC4(CC3)COc3c4ccc4c3CN([C@H]3CCC(=O)NC3=O)C4=O)c2)cn1", "target": "CRBN/Zinc finger protein Helios (Homo sapiens, UniProt Q96SW2+Q9UKS7)", "action": "degrader", "method": "HiBiT", "cell line": "HEK293", "sequence of UniProt Q96SW2 (whole entry, looked up)": "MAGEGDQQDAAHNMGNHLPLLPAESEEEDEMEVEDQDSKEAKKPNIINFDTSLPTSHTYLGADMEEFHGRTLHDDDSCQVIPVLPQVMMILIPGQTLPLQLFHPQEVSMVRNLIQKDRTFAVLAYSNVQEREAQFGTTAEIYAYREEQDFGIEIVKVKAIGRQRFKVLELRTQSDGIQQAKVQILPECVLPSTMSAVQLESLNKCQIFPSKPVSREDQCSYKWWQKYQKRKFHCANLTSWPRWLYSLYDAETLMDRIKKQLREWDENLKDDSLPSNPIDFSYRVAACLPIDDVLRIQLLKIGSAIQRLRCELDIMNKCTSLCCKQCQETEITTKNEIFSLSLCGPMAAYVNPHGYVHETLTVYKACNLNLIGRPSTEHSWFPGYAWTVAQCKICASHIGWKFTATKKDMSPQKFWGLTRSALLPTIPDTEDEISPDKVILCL", "sequence of UniProt Q9UKS7 (whole entry, looked up)": "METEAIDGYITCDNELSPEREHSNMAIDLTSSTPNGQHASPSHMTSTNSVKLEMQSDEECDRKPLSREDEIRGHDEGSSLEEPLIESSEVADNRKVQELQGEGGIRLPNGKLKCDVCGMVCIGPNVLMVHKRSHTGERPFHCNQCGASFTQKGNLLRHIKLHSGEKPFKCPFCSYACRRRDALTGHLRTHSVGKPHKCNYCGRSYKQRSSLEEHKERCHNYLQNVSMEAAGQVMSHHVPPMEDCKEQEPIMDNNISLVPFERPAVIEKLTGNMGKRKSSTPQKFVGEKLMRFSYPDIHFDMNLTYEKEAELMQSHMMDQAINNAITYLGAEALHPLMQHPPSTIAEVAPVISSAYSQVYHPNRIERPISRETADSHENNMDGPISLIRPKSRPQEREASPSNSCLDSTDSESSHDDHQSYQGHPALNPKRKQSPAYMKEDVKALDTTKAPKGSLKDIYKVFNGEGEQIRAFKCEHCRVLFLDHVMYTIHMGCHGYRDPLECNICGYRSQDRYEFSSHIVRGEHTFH"}
{"concentration": "1000 nM", "time": "1 h", "protein remaining": "40.1% and 39%"}
{"concentration": "111.1 nM", "time": "0.5 h", "protein remaining": "69.4% and 75.6%"}
{"concentration": "0.4572 nM", "time": "3 h", "protein remaining": "64.3% and 65.5%"}
{"concentration": "333.3 nM", "time": "1 h", "protein remaining": "41.4% and 45.7%"}
{"concentration": "333.3 nM", "time": "6 h", "protein remaining": "10.5% and 16.1%"}
{"concentration": "111.1 nM", "time": "6 h", "protein remaining": "16.2% and 14.3%"}
{"concentration": "1000 nM", "time": "3 h", "protein remaining": "14.7% and 18.1%"}
{"concentration": "1000 nM", "time": "0.5 h", "protein remaining": "63.9% and 67.9%"}
{"data": "Sample 3", "SMILES": "CN(C1COC1)C(C)(C)/C=C(\\C#N)C(=O)N1CCC[C@H]1Cn1nc(-c2ccc(Oc3ccccc3)cc2F)c2c(N)ncnc21", "effect on": "kinase activity"}
{"target": "cGMP-dependent protein kinase 1 (PRKG1, Homo sapiens, UniProt Q13976)", "concentration": "0.1 µM", "inhibition [%]": 0}
{"target": "Death-associated protein kinase 1 (DAPK1, Homo sapiens, UniProt P53355)", "concentration": "1 µM", "inhibition [%]": 2}
{"target": "SRSF protein kinase 2 (SRPK2, Homo sapiens, UniProt P78362)", "concentration": "1 µM", "inhibition [%]": 7}
{"target": "Casein kinase I isoform gamma-3 (CSNK1G3, Homo sapiens, UniProt Q9Y6M4)", "concentration": "1 µM", "inhibition [%]": 14}
{"target": "Serine/threonine-protein kinase MARK1 (MARK1, Homo sapiens, UniProt Q9P0L2)", "concentration": "1 µM", "inhibition [%]": 3}
{"target": "Cyclin-dependent kinase 6, with cyclin D3 (CDK6, Homo sapiens, UniProt Q00534)", "concentration": "1 µM", "inhibition [%]": -2}
{"target": "Dual specificity protein kinase CLK3 (CLK3, Homo sapiens, UniProt P49761)", "concentration": "0.1 µM", "inhibition [%]": 1}
{"target": "cAMP-dependent protein kinase catalytic subunit alpha (PRKACA, Homo sapiens, UniProt P17612)", "concentration": "0.1 µM", "inhibition [%]": -1}
{"data": "Further values, each from its own experiment"}
{"Structure (SMILES)": "C=CCN1C(=O)C(O)(C(=O)O)Oc2cc(F)ccc21 (stereo not shown)", "organism": "Arabidopsis thaliana", "assay": "root length", "test system": "Col-0", "conditions": "3.13 µg/mL, 7 days, seed germination, dark", "quantity": "inhibition", "value": "14.5%"}
